Measured values collected from several papers.
Protocols differ between the studies behind these lines. ± marks the error that the study gave.
Organism: Staphylococcus aureus

With `magainin 2` the MIC was 20.6 ± 1.3 µg/mL (serial dilution; ATCC 25923; 24 h, 37 °C).
For `CC1(C)S[C@@H]2[C@H](NC(=O)[C@H](N)c3ccc(O)cc3)C(=O)N2[C@H]1C(=O)O`, the MIC was no more than 7.81 µg/mL (microbial growth; ATCC25923).
`CC[C@H](C)[C@H](NC(=O)[C@H](CCCCN)NC(=O)[C@H](CC(C)C)NC(=O)[C@H](CC(C)C)NC(=O)[C@@H](N)CCCCN)C(=O)N[C@H](C(=O)N[C@@H](CCCCN)C(=O)N[C@@H](CCCCN)C(=O)N[C@H](C(=O)N[C@H](C(=O)NCC(=O)N[C@@H](C)C(=O)N[C@@H](CC(C)C)C(=O)NCC(N)=O)C(C)C)C(C)C)C(C)C` gave an MIC of 100 µM (SH1000 GFP-expressing, nutrient broth; 20 h, 37 °C).
The MIC of `CN[C@H](CC(C)C)C(=O)N[C@H]1C(=O)N[C@@H](CC(N)=O)C(=O)N[C@H]2C(=O)N[C@H]3C(=O)N[C@H](C(=O)N[C@H](C(=O)O)c4cc(O)cc(O)c4-c4cc3ccc4O)[C@H](O)c3ccc(c(Cl)c3)Oc3cc2cc(c3O[C@@H]2O[C@H](CO)[C@@H](O)[C@H](O)[C@H]2O[C@H]2C[C@](C)(N)[C@H](O)[C@H](C)O2)Oc2ccc(cc2Cl)[C@H]1O` is reported as greater than 200 µg/mL (VRSA VRS1/HIP11714; 20 h).
For `CC[C@H](C)[C@H](NC(=O)[C@H](C)NC(=O)[C@@H]1CCCN1C(=O)[C@@H](NC(=O)[C@@H](NC(=O)[C@H](Cc1c[nH]cn1)NC(=O)[C@H](CO)NC(=O)[C@@H](NC(=O)[C@@H](NC(=O)[C@H](CO)NC(=O)CNC(=O)[C@H](CC(C)C)NC(=O)[C@H](CC(C)C)NC(=O)CNC(=O)[C@H](CC(C)C)NC(=O)[C@H](CC(C)C)NC(=O)CN)C(C)C)C(C)C)C(C)C)C(C)C)C(=O)N[C@H](C(=O)NCC(=O)N[C@@H](Cc1c[nH]cn1)C(=O)N[C@@H](Cc1ccccc1)C(N)=O)C(C)C`, the MIC was 6.2 µM (broth microdilution; USA300 LAC; 37 °C).
With `indolicidin` the MIC was 3.66 µM (ATCC 25923).
`CC[C@H](C)[C@H](NC(=O)[C@H](Cc1c[nH]cn1)NC(=O)[C@H](Cc1c[nH]cn1)NC(=O)[C@H](Cc1ccccc1)NC(=O)[C@@H](N)Cc1ccccc1)C(=O)N[C@@H](Cc1ccccc1)C(=O)N[C@@H](CCCNC(=N)N)C(=O)NCC(=O)N[C@@H](C)C(=O)N[C@H](C(=O)N[C@@H](Cc1c[nH]cn1)C(=O)N[C@H](C(=O)NCC(=O)N[C@@H](CCCCN)C(=O)N[C@H](C(=O)N[C@H](C(=O)N[C@@H](Cc1c[nH]cn1)C(=O)N[C@@H](CCCNC(=N)N)C(=O)N[C@@H](CC(C)C)C(=O)N[C@H](C(=O)N[C@H](C(=O)NCC(N)=O)[C@@H](C)O)C(C)C)[C@@H](C)CC)[C@@H](C)O)C(C)C)C(C)C` has an MIC of 3.1 µg/mL (broth microdilution; MRSA clinical isolate, brain heart infusion; 18 h, 37 °C).
`CC[C@H](C)[C@H](NC(=O)[C@@H]1CCCN1C(=O)[C@H](Cc1c[nH]cn1)NC(=O)[C@H](CCCCN)NC(=O)[C@@H]1CCCN1C(=O)[C@@H](N)CCCNC(=N)N)C(=O)N[C@@H](CCCCN)C(=O)N[C@@H](Cc1c[nH]cn1)C(=O)N[C@@H](CCC(N)=O)C(=O)NCC(=O)N[C@@H](CC(C)C)C(=O)N1CCC[C@H]1C(=O)N[C@@H](CCC(N)=O)C(=O)N[C@@H](CCC(=O)O)C(=O)N[C@H](C(=O)N[C@@H](CC(C)C)C(=O)N[C@@H](CC(N)=O)C(=O)N[C@@H](CCC(=O)O)C(=O)N[C@@H](CC(N)=O)C(=O)N[C@@H](CC(C)C)C(=O)N[C@@H](CC(C)C)C(=O)N[C@@H](CCCNC(=N)N)C(=O)N[C@@H](Cc1ccccc1)C(=O)O)C(C)C` has an MIC of greater than 100 µM (broth microdilution; USA300 LAC; 37 °C).
For `CC(C)C[C@H](NC(=O)[C@H](CC(C)C)NC(=O)[C@H](CCCCN)NC(=O)[C@H](CC(C)C)NC(=O)[C@H](CC(C)C)NC(=O)[C@H](CCCCN)NC(=O)[C@H](CCCCN)NC(=O)[C@H](CC(C)C)NC(=O)[C@H](CC(C)C)NC(=O)[C@H](CCCCN)NC(=O)[C@H](CC(C)C)NC(=O)[C@H](CC(C)C)NC(=O)[C@@H](N)CCCCN)C(=O)N[C@@H](CCCCN)C(N)=O`, the MIC was 19 µM (ATCC 43300, CAMHB; 18 h, 37 °C).
Under MIC, `Nc1cccc2c(=O)[nH]c(=O)oc12` is recorded as “inactive” (ATCC 29213; 50 µg/mL).
For `CC[C@H](C)[C@H](NC(=O)[C@H](Cc1ccc(O)cc1)NC(=O)[C@H](CCCCN)NC(=O)[C@@H](N)CS)C(=O)N[C@@H](CC(C)C)C(=O)N[C@@H](CC(C)C)C(=O)N[C@@H](CC(C)C)C(=O)N[C@@H](CCCNC(=N)N)C(=O)N[C@@H](CCCNC(=N)N)C(=O)N[C@@H](CCC(N)=O)C(=O)N[C@@H](CC(C)C)C(=O)N[C@@H](C)C(=O)N[C@@H](CCCNC(=N)N)C(=O)N[C@@H](C)C(=O)N[C@@H](Cc1c[nH]c2ccccc12)C(=O)N[C@@H](CCCNC(=N)N)C(=O)N[C@@H](CCCNC(=N)N)C(=O)NCC(=O)N[C@@H](CC(C)C)C(=O)N[C@@H](CCCNC(=N)N)C(=O)O`, the MIC was 24 µg/mL (broth microdilution; USA300 JE2 wild type; 18 to 20 h).
`CC[C@H](C)[C@H](NC(=O)[C@H](C)NC(=O)[C@H](CCCNC(=N)N)NC(=O)CNC(=O)[C@H](C)NC(=O)[C@H](CCC(=O)O)NC(=O)CNC(=O)[C@H](CC(=O)O)NC(=O)[C@H](Cc1ccc(O)cc1)NC(=O)[C@H](Cc1ccccc1)NC(=O)CNC(=O)[C@H](CCCCN)NC(=O)[C@H](CCCNC(=N)N)NC(=O)[C@H](CC(C)C)NC(=O)[C@H](CO)NC(=O)[C@H](CO)NC(=O)[C@H](Cc1c[nH]c2ccccc12)NC(=O)[C@H](Cc1ccccc1)NC(=O)[C@H](CC(N)=O)NC(=O)[C@H](CCCCN)NC(=O)[C@H](Cc1c[nH]c2ccccc12)NC(=O)[C@H](C)NC(=O)CN)C(=O)N[C@@H](CCCNC(=N)N)C(=O)N[C@@H](CCCNC(=N)N)C(=O)O` has an MIC of greater than 38.9 µM (broth microdilution; USA300 LAC; 37 °C).
`CC(C)C[C@H](NC(=O)[C@H](C)NC(=O)CNC(=O)[C@@H](NC(=O)[C@H](CC(C)C)NC(=O)[C@H](CCCCN)NC(=O)[C@H](CCCCN)NC(=O)[C@H](CC(C)C)NC(=O)[C@H](CC(C)C)NC(=O)[C@H](CCCCN)NC(=O)[C@H](CC(C)C)NC(=O)[C@H](CC(C)C)NC(=O)[C@@H](N)CCCCN)C(C)C)C(=O)NCC(N)=O` has an MIC of 10 µM (SH1000 GFP-expressing, nutrient broth; 20 h, 37 °C).

Some of these lines once more:
With `magainin 2` the MIC was 20.6 ± 1.3 µg/mL (serial dilution; ATCC 25923; 24 h, 37 °C).
Under MIC, `Nc1cccc2c(=O)[nH]c(=O)oc12` is recorded as “inactive” (ATCC 29213; 50 µg/mL).
